Measured values from different studies.
A part holds a random share of what one study measured.
Chain of UniProt Q99640 (whole entry, looked up): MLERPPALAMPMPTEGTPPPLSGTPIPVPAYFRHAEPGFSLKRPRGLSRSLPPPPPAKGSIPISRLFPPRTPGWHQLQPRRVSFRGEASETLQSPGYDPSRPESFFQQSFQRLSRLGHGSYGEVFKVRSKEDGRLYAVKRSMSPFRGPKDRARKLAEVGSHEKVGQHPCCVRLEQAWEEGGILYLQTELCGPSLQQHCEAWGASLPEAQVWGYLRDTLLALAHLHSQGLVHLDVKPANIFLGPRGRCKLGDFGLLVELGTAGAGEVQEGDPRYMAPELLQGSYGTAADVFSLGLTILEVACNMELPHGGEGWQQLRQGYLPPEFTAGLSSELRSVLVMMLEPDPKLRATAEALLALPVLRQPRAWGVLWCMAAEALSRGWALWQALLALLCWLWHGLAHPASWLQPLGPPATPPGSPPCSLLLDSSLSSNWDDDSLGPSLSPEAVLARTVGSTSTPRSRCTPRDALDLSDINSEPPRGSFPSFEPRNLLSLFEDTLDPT
Chain of UniProt P53671 (whole entry, looked up): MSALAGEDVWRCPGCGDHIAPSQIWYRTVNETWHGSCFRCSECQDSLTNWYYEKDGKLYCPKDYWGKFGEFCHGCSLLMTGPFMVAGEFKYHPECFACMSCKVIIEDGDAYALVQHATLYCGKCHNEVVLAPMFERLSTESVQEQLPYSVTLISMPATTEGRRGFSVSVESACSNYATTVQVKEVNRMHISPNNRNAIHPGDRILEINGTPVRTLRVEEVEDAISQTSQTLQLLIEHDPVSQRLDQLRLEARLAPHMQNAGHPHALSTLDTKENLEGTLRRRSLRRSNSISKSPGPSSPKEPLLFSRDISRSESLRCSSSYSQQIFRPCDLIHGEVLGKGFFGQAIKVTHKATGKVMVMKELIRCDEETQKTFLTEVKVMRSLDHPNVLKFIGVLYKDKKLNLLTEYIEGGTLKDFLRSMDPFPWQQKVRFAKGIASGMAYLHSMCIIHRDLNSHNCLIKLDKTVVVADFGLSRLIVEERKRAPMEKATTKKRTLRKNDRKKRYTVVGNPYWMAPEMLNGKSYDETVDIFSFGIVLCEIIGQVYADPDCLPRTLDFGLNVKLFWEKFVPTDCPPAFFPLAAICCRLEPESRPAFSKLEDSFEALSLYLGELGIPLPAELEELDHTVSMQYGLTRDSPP
Chain of UniProt Q6DT37 (whole entry, looked up): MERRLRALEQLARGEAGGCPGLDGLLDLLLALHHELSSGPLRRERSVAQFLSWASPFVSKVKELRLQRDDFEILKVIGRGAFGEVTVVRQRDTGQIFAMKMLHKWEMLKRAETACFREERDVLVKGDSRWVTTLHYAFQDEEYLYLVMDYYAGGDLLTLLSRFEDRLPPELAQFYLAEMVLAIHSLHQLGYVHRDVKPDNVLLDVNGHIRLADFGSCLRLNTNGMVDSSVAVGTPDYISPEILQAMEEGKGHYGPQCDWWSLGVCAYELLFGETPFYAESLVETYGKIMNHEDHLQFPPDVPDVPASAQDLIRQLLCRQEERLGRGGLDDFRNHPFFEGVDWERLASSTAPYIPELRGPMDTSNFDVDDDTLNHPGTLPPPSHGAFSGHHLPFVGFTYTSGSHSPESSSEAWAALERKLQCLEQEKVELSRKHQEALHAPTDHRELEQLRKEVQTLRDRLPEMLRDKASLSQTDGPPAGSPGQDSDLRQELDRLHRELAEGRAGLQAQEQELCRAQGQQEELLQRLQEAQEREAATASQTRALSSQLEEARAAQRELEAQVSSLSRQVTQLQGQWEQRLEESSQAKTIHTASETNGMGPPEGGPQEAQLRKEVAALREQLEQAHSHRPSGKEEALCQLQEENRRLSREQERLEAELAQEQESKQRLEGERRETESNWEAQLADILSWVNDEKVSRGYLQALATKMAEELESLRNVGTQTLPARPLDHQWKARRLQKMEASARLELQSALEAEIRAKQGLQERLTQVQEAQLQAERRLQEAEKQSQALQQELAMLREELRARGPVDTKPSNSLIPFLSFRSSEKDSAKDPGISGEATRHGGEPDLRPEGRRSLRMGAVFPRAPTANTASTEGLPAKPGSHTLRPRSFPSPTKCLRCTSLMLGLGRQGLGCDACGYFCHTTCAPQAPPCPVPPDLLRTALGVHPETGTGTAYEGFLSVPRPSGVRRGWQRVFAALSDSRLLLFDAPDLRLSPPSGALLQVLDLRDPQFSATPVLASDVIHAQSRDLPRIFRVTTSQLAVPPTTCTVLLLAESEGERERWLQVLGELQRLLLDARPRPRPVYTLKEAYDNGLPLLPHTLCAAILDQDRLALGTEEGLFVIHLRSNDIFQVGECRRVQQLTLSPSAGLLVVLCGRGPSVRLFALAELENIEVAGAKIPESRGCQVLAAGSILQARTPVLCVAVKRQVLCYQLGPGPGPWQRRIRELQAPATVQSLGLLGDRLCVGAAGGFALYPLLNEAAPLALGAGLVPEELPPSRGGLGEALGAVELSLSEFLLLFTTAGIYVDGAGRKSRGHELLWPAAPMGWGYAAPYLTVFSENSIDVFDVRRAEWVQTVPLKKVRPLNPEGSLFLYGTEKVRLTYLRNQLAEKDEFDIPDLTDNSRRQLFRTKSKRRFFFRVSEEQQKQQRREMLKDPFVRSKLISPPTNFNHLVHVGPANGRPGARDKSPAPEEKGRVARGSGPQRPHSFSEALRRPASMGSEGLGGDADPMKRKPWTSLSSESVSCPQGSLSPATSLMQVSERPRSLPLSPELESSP
Chain of UniProt Q9HCP0 (whole entry, looked up): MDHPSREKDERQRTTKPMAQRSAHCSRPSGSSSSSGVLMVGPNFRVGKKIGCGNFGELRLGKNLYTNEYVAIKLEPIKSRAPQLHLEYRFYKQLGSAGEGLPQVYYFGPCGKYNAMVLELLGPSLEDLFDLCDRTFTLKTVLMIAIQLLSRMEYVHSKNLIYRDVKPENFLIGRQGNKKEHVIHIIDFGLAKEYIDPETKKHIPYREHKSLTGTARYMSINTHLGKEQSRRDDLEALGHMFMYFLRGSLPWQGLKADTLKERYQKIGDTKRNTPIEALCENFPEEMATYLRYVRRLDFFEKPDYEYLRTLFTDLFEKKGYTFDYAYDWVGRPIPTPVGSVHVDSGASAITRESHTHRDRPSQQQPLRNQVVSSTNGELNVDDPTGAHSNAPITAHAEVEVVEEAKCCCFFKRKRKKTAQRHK
Chain of UniProt P51817 (whole entry, looked up): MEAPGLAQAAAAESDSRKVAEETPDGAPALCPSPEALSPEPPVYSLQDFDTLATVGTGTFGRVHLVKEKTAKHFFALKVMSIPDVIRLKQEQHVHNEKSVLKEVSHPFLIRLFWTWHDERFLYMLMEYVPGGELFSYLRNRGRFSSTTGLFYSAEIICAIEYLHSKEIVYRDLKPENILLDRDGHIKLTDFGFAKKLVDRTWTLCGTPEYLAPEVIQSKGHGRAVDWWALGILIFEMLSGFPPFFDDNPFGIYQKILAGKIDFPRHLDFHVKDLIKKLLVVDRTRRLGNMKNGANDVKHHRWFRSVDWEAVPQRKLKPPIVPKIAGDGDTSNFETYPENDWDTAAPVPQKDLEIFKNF

Series 1 — concentration: 1 µM; measurement: remaining binding
SMILES: COc1ccc2c(c1)O[C@H](c1ccc(OC)c(OC)c1)C[C@@H]2NC(=O)C1(c2ccc3c(c2)OC(F)(F)O3)CC1
target = MAP3K6 (Homo sapiens, UniProt O95382); observed = cell-free assay; method = competition with immobilised ligand; result = 81%
target = ANKK1 (Homo sapiens, UniProt Q8NFD2); observed = cell-free assay; method = competition with immobilised ligand; result = 100%
target = CDC42BPG (Homo sapiens, UniProt Q6DT37); method = competition binding; result = 89%
target = MARK4 (Homo sapiens, UniProt Q96L34); observed = cell-free assay; method = competition with immobilised ligand; result = 88%
target = LIM domain kinase 1 (LIMK1, Homo sapiens, UniProt P53667); observed = cell-free assay; method = competition with immobilised ligand; result = 98%
target = PRKX (Homo sapiens, UniProt P51817); observed = cell-free assay; method = competition with immobilised ligand; result = 100%
target = FGFR3 (Homo sapiens, UniProt P22607, G697C); observed = cell-free assay; method = competition with immobilised ligand; result = 93%
target = FLT3 (Homo sapiens, UniProt P36888, N841I); observed = cell-free assay; method = competition with immobilised ligand; result = 100%
target = PKMYT1 (Homo sapiens, UniProt Q99640); observed = cell-free assay; method = competition with immobilised ligand; result = 100%
target = CDK4 (Homo sapiens, UniProt P11802); observed = cell-free assay; method = competition with immobilised ligand; result = 96%
target = CSNK1G1 (Homo sapiens, UniProt Q9HCP0); observed = cell-free assay; method = competition with immobilised ligand; result = 100%
target = FLT3 (Homo sapiens, UniProt P36888, D835H); observed = cell-free assay; method = competition with immobilised ligand; result = 100%
target = LIM domain kinase 2 (LIMK2, Homo sapiens, UniProt P53671); observed = cell-free assay; method = competition with immobilised ligand; result = 100%
target = CDC42BPB (Homo sapiens, UniProt Q9Y5S2); observed = cell-free assay; method = competition with immobilised ligand; result = 100%
target = CHEK1 (Homo sapiens, UniProt O14757); observed = cell-free assay; method = competition with immobilised ligand; result = 100%

Series 2 — observed: enzyme activity; mode: inhibitor; concentration: 0.5 µM; relative to: control; measurement: remaining activity
Target: Ephrin type-A receptor 2 (EPHA2, Homo sapiens, UniProt P29317)
Chain of UniProt P29317 (whole entry, looked up): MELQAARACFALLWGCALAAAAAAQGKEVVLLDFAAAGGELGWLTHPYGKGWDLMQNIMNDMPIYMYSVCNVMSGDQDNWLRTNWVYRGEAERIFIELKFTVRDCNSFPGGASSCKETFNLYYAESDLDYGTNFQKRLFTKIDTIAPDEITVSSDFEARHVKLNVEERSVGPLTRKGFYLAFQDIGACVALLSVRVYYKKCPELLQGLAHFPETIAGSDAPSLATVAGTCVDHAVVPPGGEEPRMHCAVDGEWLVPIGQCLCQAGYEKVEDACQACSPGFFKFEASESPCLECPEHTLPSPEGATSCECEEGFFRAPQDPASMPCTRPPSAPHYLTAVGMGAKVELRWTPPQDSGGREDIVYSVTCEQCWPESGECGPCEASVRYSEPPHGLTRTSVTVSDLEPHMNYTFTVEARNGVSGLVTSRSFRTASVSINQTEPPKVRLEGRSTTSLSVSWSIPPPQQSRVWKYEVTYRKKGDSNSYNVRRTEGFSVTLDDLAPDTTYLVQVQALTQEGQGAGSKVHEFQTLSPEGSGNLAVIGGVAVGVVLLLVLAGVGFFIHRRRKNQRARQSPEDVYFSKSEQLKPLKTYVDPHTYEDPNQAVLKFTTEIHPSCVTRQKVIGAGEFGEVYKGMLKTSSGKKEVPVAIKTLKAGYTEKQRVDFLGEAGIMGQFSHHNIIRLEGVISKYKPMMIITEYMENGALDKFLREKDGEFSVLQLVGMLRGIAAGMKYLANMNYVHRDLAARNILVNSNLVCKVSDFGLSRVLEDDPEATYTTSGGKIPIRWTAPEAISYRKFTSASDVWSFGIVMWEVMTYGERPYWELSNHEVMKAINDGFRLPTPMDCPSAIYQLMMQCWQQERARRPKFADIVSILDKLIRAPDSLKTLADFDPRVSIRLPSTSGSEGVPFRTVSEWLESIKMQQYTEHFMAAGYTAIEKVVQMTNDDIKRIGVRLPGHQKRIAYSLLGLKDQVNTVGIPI
SMILES = O=C(NC(NC(=S)Nc1ccc(F)c([N+](=O)[O-])c1)C(Cl)(Cl)Cl)C(c1ccccc1)c1ccccc1 (stereo not drawn); result = 103%
SMILES = COc1cc2ncnc(Nc3cccc(Cl)c3)c2cc1OC; result = 85.2%
SMILES = O=c1cc(-c2cccc3c2Sc2ccccc2S3)oc(N2CCOCC2)c1; result = 96.2%
SMILES = Cc1cc2ncc(-c3ccccc3)nc2cc1C; result = 103%
SMILES = CCN(CC)CCNC(=O)c1c(C)[nH]c(/C=C2\C(=O)Nc3ccc(F)cc32)c1C; result = 83.6%
SMILES = c1ccc(-c2cnc(Nc3ccc(OCCN4CCCC4)cc3)s2)cc1; result = 108%
SMILES = N#C/C(=C\c1ccc(O)c(O)c1)C(=O)NCc1ccccc1; result = 105%
SMILES = COc1cc2c(cc1OC)-c1[nH]nc(Nc3cccc(F)c3)c1C2; result = 93.8%
SMILES = COc1cc2ncnc(Nc3ccc(O)c(Br)c3)c2cc1OC; result = 80.6%
SMILES = CCOc1nc(NC(=O)Cc2cc(OC)ccc2OC)cc(N)c1C#N; result = 103%
SMILES = CCN(CC)C(=O)c1ccc(Nc2nc(OCC3CCCCC3)c3[nH]cnc3n2)cc1; result = 90.6%
SMILES = Cn1nc2c3c(cccc31)C(=O)c1ccccc1-2; result = 104%
SMILES = O=C1C(Cl)=C(N2C(=O)CCC2=O)C(=O)c2ccccc21; result = 107%
SMILES = Nc1cccc(-c2cc3c(Oc4cccc(O)c4)ncnc3[nH]2)c1; result = 48.2%
SMILES = O=C(Nc1cccc(Nc2nccc(Nc3cccc(C(F)(F)F)c3)n2)c1)C1CC1; result = 87.3%
SMILES = O=C1c2ccccc2-c2n[nH]c3cccc1c23; result = 89%
SMILES = CCN(CC)CCNC(=O)c1c(C)[nH]c(/C=C2\C(=O)Nc3ccc(Cl)cc32)c1C; result = 93.5%
SMILES = CN([C@@H](Cc1ccc(OS(=O)(=O)c2cccc3cnccc23)cc1)C(=O)N1CCN(c2ccccc2)CC1)S(=O)(=O)c1cccc2cnccc12; result = 101%
SMILES = Cc1nc2cc3nc(-c4cccs4)cnc3cc2n1C; result = 107%
SMILES = Ic1cccc(CSc2nnc(-c3ccncc3)o2)c1; result = 102%
SMILES = c1ccc(-c2[nH]ncc2-c2ccnc3ccccc23)nc1; result = 103%
SMILES = Cc1cn(-c2cc(NC(=O)c3ccc(C)c(Nc4nccc(-c5cccnc5)n4)c3)cc(C(F)(F)F)c2)cn1; result = 10.8%

Series 3 — observed: enzyme activity; mode: inhibitor; concentration: 10 µM; measurement: inhibition
Target: Calcium/calmodulin-dependent protein kinase type II subunit alpha (CAMK2A, Homo sapiens, UniProt Q9UQM7)
Chain of UniProt Q9UQM7 (whole entry, looked up): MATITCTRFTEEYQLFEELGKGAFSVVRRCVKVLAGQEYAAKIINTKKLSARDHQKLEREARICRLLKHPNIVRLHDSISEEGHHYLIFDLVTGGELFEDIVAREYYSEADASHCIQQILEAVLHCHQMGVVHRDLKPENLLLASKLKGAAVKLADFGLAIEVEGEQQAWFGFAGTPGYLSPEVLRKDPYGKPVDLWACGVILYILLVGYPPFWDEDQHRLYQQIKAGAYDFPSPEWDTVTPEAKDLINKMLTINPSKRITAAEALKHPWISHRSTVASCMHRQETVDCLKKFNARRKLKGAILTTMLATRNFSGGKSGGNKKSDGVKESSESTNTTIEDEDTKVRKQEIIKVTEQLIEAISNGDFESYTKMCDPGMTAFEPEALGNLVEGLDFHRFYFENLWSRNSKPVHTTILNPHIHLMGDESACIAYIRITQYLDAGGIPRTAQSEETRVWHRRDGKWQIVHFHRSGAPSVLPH
Structure (SMILES) = COc1ccc(CCN(C)CCC[C@](C#N)(c2ccc(OC)c(OC)c2)C(C)C)cc1OC; result = -7%
Structure (SMILES) = CCn1cnc2c(N)ncnc21; result = 7%
Structure (SMILES) = CC(=O)O[C@H]1C[C@@]2(C)[C@@H](C[C@H]1O)C(=O)C=C1[C@@H]2CC[C@]2(C)[C@@H]([C@@](C)(O)[C@H](O)CCC(C)(C)O)CC[C@@]12O; result = -14%
Structure (SMILES) = O=C(CCCN1CCC(O)(c2ccc(Br)cc2)CC1)c1ccc(F)cc1; result = -7%
Structure (SMILES) = C/C=C/c1ccc(OC)c(OC)c1; result = -43%

Series 4 — cell line: A-375; concentration: 100 µM; time: 36 h; measurement: viability
SMILES = C[C@@H](c1ncncc1F)[C@](O)(Cn1cncn1)c1ccc(F)cc1F; result = 88.3%
SMILES = Nc1c(CC(=O)O)cccc1C(=O)c1ccc(Br)cc1; result = 56.6%
SMILES = CC(=O)c1ccc2c(c1)N(CCCN1CCC(CCO)CC1)c1ccccc1S2; result = 1.41%
SMILES = CCC1(C)CC(=O)NC1=O (stereo not drawn); result = 116%
SMILES = C=CC[N+]1([C@H]2C[C@H]3[C@@H]4CC[C@H]5C[C@H](O)[C@@H](N6CCOCC6)C[C@]5(C)[C@H]4CC[C@]3(C)[C@H]2OC(C)=O)CCCC1; result = 52.2%
SMILES = COc1ccc2cc1Oc1ccc(cc1)C[C@H]1c3cc(c(OC)cc3CCN1C)Oc1c(OC)c(OC)cc3c1[C@H](C2)N(C)CC3; result = 0.445%
SMILES = COc1ccnc(C[S+]([O-])c2nc3cc(-n4cccc4)ccc3[nH]2)c1C (stereo not drawn); result = 72.3%
SMILES = O=c1ccn([C@@H]2O[C@H](CO)[C@@H](O)[C@H]2O)c(=O)[nH]1; result = 112%
SMILES = CO[C@H]1C[C@@H]2CC[C@@H](C)[C@@](O)(O2)C(=O)C(=O)N2CCCC[C@H]2C(=O)O[C@H]([C@H](C)C[C@@H]2CC[C@@H](O)[C@H](OC)C2)CC(=O)[C@H](C)/C=C(\C)[C@@H](O)[C@@H](OC)C(=O)[C@H](C)C[C@H](C)/C=C/C=C/C=C/1C; result = 20.2%
